Measured values gathered from unrelated publications.
Parts stem from different laboratories: compare values within a part only.
Chain of UniProt Q06187 (whole entry, looked up): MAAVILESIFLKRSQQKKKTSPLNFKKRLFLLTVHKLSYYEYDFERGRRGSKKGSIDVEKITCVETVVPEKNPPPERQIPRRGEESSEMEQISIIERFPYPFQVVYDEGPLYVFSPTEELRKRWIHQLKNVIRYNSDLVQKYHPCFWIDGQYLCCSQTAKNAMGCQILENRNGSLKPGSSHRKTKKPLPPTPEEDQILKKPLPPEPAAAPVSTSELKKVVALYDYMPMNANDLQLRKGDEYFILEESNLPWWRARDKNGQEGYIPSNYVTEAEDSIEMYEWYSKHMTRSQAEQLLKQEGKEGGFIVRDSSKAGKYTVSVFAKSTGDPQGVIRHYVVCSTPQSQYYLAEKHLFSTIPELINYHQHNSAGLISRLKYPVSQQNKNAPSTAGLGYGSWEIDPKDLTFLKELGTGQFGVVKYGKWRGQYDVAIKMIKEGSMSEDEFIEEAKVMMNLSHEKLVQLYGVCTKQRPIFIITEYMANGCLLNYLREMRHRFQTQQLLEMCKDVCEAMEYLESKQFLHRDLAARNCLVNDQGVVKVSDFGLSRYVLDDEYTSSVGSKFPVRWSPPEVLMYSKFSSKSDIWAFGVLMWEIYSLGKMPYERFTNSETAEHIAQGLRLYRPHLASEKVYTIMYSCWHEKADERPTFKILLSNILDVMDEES
Chain of UniProt P54756 (whole entry, looked up): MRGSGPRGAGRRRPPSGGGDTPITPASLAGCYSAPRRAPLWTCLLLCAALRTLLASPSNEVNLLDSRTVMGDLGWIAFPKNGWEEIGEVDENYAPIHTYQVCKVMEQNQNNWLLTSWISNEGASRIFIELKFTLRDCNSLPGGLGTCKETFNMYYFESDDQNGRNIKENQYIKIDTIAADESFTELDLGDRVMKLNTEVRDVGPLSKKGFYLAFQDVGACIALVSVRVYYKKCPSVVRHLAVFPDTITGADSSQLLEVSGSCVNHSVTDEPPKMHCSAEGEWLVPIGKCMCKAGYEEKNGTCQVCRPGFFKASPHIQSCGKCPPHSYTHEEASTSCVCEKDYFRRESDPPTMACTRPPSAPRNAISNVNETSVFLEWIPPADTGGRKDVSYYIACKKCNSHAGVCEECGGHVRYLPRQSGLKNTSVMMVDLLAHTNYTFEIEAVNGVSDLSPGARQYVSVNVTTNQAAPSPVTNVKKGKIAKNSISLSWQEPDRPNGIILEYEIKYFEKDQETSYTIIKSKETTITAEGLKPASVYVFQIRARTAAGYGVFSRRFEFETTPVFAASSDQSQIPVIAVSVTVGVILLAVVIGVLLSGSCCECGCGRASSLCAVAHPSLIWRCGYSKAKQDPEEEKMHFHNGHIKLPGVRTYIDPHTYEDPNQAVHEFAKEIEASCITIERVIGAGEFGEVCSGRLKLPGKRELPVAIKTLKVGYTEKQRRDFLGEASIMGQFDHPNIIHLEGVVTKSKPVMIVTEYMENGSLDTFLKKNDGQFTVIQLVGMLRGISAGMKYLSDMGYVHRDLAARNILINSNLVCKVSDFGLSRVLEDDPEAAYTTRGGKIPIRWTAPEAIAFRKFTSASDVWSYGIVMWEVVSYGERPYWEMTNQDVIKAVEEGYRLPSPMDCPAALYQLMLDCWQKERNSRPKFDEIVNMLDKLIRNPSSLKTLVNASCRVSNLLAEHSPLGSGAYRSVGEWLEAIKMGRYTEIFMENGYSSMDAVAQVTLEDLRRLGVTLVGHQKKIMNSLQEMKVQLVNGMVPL
Chain of UniProt P04629 (whole entry, looked up): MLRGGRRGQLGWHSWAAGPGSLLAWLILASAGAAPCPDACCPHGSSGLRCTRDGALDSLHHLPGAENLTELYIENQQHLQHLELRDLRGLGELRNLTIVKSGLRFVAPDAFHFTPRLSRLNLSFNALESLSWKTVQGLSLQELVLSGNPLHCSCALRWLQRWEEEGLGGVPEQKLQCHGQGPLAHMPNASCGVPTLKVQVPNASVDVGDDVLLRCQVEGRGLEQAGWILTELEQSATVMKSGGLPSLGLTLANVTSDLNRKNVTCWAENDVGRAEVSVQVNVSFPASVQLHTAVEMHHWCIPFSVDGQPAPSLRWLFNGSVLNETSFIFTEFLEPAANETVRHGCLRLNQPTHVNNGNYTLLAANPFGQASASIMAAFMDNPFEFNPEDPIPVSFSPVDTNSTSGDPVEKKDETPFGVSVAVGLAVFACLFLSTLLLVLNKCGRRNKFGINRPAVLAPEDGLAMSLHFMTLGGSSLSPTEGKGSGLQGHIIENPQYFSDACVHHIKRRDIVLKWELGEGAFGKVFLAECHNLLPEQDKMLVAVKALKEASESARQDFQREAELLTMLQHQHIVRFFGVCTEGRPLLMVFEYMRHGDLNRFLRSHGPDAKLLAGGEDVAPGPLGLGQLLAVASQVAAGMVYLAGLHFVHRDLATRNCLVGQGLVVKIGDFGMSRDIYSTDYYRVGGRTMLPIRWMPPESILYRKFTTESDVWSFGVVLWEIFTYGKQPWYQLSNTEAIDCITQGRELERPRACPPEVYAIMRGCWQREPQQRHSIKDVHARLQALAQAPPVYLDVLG
Chain of UniProt Q8WTQ7 (whole entry, looked up): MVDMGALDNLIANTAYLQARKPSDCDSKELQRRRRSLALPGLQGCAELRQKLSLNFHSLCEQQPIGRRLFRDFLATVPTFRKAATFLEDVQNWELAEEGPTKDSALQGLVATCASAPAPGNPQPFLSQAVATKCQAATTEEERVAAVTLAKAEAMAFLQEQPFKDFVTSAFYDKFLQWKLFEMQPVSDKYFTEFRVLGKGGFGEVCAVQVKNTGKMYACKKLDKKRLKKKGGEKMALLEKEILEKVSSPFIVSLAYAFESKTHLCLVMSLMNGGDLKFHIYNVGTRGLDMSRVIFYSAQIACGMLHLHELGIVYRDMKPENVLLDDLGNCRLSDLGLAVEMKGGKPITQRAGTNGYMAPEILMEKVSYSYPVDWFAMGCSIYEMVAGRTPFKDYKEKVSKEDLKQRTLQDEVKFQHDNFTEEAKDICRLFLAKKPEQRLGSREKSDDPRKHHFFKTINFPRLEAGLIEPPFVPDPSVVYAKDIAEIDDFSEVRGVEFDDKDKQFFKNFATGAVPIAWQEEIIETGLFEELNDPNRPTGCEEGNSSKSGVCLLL
Chain of UniProt Q9Y243 (whole entry, looked up): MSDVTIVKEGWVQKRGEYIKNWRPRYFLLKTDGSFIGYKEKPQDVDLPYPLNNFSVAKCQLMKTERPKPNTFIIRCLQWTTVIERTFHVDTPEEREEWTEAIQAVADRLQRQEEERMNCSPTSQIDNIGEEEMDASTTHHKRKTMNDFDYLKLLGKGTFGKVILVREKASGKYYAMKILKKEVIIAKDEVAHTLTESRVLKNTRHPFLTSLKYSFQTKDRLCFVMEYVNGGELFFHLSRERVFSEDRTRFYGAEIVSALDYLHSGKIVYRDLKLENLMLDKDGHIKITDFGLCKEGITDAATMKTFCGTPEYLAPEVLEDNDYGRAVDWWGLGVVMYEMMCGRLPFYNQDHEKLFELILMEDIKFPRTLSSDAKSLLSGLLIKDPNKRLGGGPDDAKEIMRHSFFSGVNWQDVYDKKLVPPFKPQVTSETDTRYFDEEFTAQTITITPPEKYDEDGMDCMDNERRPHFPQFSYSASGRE
Chain of UniProt O15264 (whole entry, looked up): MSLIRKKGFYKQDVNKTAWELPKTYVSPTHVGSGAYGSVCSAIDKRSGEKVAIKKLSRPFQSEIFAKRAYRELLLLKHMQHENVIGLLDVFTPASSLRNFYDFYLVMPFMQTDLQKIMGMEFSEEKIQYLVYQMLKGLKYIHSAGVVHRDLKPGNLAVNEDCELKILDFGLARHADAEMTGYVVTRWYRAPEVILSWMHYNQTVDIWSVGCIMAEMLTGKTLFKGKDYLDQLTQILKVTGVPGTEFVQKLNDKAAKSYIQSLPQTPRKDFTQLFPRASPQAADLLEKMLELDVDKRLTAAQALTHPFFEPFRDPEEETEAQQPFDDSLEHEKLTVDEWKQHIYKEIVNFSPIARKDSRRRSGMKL
Chain of UniProt P48729 (whole entry, looked up): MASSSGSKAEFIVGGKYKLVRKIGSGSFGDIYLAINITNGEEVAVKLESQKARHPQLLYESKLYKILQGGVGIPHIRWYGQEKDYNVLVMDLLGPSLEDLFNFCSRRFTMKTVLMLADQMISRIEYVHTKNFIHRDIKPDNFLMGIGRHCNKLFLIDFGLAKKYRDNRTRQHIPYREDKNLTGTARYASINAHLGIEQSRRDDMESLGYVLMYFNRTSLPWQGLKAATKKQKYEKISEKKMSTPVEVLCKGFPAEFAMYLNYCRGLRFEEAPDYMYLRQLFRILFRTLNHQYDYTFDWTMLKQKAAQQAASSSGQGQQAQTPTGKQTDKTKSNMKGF
Chain of UniProt Q9P1W9 (whole entry, looked up): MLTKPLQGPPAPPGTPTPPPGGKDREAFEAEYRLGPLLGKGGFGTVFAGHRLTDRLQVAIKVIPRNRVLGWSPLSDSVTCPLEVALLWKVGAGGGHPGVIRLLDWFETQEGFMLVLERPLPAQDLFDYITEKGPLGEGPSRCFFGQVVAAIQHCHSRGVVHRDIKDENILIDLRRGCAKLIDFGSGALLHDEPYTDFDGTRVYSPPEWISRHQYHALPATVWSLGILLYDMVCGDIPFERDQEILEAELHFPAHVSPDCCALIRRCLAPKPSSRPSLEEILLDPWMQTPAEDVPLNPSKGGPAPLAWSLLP

Block 1
Target: Calcium/calmodulin-dependent protein kinase type II subunit alpha (CAMK2A, Homo sapiens, UniProt Q9UQM7)
Chain of UniProt Q9UQM7 (whole entry, looked up): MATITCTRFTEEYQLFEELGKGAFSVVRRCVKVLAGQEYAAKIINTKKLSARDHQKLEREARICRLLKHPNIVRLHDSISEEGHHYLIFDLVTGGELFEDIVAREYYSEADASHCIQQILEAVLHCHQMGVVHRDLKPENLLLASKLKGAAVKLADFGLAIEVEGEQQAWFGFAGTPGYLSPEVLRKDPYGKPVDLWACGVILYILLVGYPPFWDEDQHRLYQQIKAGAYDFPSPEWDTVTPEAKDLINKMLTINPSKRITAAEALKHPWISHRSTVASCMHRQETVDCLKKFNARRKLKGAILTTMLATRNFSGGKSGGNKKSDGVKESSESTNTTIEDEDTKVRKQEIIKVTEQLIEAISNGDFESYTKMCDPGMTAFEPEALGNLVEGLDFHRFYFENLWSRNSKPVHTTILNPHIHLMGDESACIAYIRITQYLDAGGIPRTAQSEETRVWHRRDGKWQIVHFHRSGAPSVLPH
Effect on: enzyme activity
Mode: inhibitor
Concentration: 10 µM
| SMILES | inhibition [%] |
| --- | --- |
| CC1=C(C=O)C(C)(C)CC=C1 | 27 |
| OC[C@H]1O[C@@H](Oc2cc(O)cc(/C=C/c3ccc(O[C@@H]4O[C@H](CO)[C@@H](O)[C@H](O)[C@H]4O)cc3O)c2)[C@H](O)[C@@H](O)[C@@H]1O | -17 |
| CC(C)CCC[C@@H](C)[C@H]1CC[C@H]2[C@@H]3CC=C4C[C@@H](O)CC[C@]4(C)[C@H]3CC[C@]12C | 26 |
| COC(=O)[C@@]12OC[C@]34[C@H]([C@@H](O)[C@@H]1O)[C@@]1(C)CC(=O)C(O)=C(C)[C@@H]1C[C@H]3OC(=O)[C@H](OC(C)=O)[C@@H]24 | -10 |
| COc1ccc2c(c1OC)CN(C)c1c-2ccc2cc3c(cc12)OCO3 | -2 |
| CC(=O)N[C@H]1[C@H]([C@H](O)[C@H](O)CO)OC(C(=O)O)=C[C@@H]1N=C(N)N | 0 |
| CC(C)(O)[C@@H]1Cc2cc3ccc(=O)oc3cc2O1 | -19 |
| OC1OC[C@@H](O[C@@H]2OC[C@@H](O[C@@H]3OC[C@@H](O)[C@H](O)[C@H]3O)[C@H](O)[C@H]2O)[C@H](O)[C@H]1O (some centres unmarked) | 3 |
| CCOC(=O)c1ccc(N)cc1 | 3 |
| C=C(CCC=C(C)C)[C@H]1CC[C@]2(C)[C@@H]1[C@H](O)C[C@@H]1[C@@]3(C)CC[C@H](O[C@@H]4O[C@H](CO)[C@@H](O)[C@H](O)[C@H]4O[C@@H]4O[C@H](CO)[C@@H](O)[C@H](O)[C@H]4O)C(C)(C)[C@@H]3CC[C@]12C | -6 |
| O=C(O)/C=C\c1ccc2occc2c1O[C@@H]1O[C@H](CO)[C@@H](O)[C@H](O)[C@H]1O | -8 |
| CC1(C)C[C@@H](O)[C@]2(C)CC[C@]3(C)C(=CC[C@@H]4[C@@]5(C)CC[C@H](O)[C@](C)(CO)[C@@H]5CC[C@]43C)[C@@H]2C1 | 3 |

Block 2
Structure (SMILES): O=C(O)c1cc(-c2ccc(C3CCNCC3)cc2)c2ccc(-c3ccc(C(F)(F)F)cc3)cc2c1
Effect on: cell-free assay
Method: competition with immobilised ligand
Concentration: 1 µM
| target | remaining binding [%] |
| --- | --- |
| Tyrosine-protein kinase ABL1, phosphorylated (ABL1, Homo sapiens, UniProt P00519, F317L) | 100 |
| Tyrosine-protein kinase JAK2, JH1 (JAK2, Homo sapiens, UniProt O60674) | 100 |
| CASK (Homo sapiens, UniProt O14936) | 100 |
| PIM2 (Homo sapiens, UniProt Q9P1W9) | 100 |
| Ribosomal protein S6 kinase alpha-1, C-terminal kinase domain (RPS6KA1, Homo sapiens, UniProt Q15418) | 100 |
| PHKG2 (Homo sapiens, UniProt P15735) | 100 |
| MST1R (Homo sapiens, UniProt Q04912) | 100 |
| MAST1 (Homo sapiens, UniProt Q9Y2H9) | 100 |
| MARK3 (Homo sapiens, UniProt P27448) | 100 |
| ERBB2 (Homo sapiens, UniProt P04626) | 100 |
| EPHA3 (Homo sapiens, UniProt P29320) | 100 |
| BTK (Homo sapiens, UniProt Q06187) | 96 |
| EPHB4 (Homo sapiens, UniProt P54760) | 100 |
| GRK7 (Homo sapiens, UniProt Q8WTQ7) | 85 |
| AXL (Homo sapiens, UniProt P30530) | 100 |
| PAK6 (Homo sapiens, UniProt Q9NQU5) | 100 |
| NTRK1 (Homo sapiens, UniProt P04629) | 100 |
| STK25 (Homo sapiens, UniProt O00506) | 100 |
| RIOK2 (Homo sapiens, UniProt Q9BVS4) | 100 |
| MINK1 (Homo sapiens, UniProt Q8N4C8) | 98 |
| TGFBR2 (Homo sapiens, UniProt P37173) | 100 |
| FGFR3 (Homo sapiens, UniProt P22607, G697C) | 100 |
| Tyrosine-protein kinase ABL1, phosphorylated (ABL1, Homo sapiens, UniProt P00519, T315I) | 100 |
| EGFR (Homo sapiens, UniProt P00533) | 100 |
| PRKCH (Homo sapiens, UniProt P24723) | 100 |

Block 3
Structure (SMILES): Fc1ccc(-c2nc3n(c2-c2ccncc2)CCS3)cc1
Effect on: enzyme activity
Mode: inhibitor
Concentration: 0.5 µM
Relative to: control
| target | remaining activity [%] |
| --- | --- |
| MAP3K10 (Homo sapiens, UniProt Q02779) | 101 |
| CHEK1 (Homo sapiens, UniProt O14757) | 95.9 |
| BTK (Homo sapiens, UniProt Q06187) | 103 |
| STK38 (Homo sapiens, UniProt Q15208) | 88 |
| KIT (Homo sapiens, UniProt P10721) | 92.8 |
| CSNK2A1 (Homo sapiens, UniProt P68400) | 106 |
| MAPK13 (Homo sapiens, UniProt O15264) | 111 |
| LYN (Homo sapiens, UniProt P07948) | 97.4 |
| PRKCI (Homo sapiens, UniProt P41743) | 90.9 |
| CSNK1A1 (Homo sapiens, UniProt P48729) | 58.8 |
| AKT3 (Homo sapiens, UniProt Q9Y243) | 109 |
| PLK2 (Homo sapiens, UniProt Q9NYY3) | 103 |
| MAP4K2 (Homo sapiens, UniProt Q12851) | 109 |
| MAP2K6 (Homo sapiens, UniProt P52564) | 104 |
| PRKCD (Homo sapiens, UniProt Q05655) | 99.1 |
| MKNK2 (Homo sapiens, UniProt Q9HBH9) | 84.9 |
| PRKG1 (Homo sapiens, UniProt Q13976) | 103 |
| NEK4 (Homo sapiens, UniProt P51957) | 93.5 |
| IRAK4 (Homo sapiens, UniProt Q9NWZ3) | 109 |
| MAPK12 (Homo sapiens, UniProt P53778) | 104 |
| LRRK2 (Homo sapiens, UniProt Q5S007) | 96.7 |
| Cyclin-dependent kinase 9, with cyclin T1 (CDK9, Homo sapiens, UniProt P50750) | 94.9 |
| EPHA5 (Homo sapiens, UniProt P54756) | 89.7 |

Block 4
Organism: Sarcocystis neurona
Effect on: parasite growth
Concentration: 10 µM
Time: 96 h
Notes: first screen
| Compound | inhibition [%] |
| --- | --- |
| Nc1nc2c(ncn2CCC(CO)CO)c(=O)[nH]1 | 3.9 |
| Oc1ncnc2[nH]ncc12 | -10 |
| CN(CCOc1ccc(NS(C)(=O)=O)cc1)CCc1ccc(NS(C)(=O)=O)cc1 | -1.6 |
| CCOC(=O)N1CCC(=C2c3ccc(Cl)cc3CCc3cccnc32)CC1 | 21 |
| CN(C)CCC(c1ccc(Cl)cc1)c1ccccn1 (centres unmarked) | -6.4 |
| CC1(C)O[C@@H]2[C@@H](CO[C@@]3(COS(N)(=O)=O)OC(C)(C)O[C@@H]23)O1 | -2.8 |
| CC(=O)OCC(=O)[C@@]1(O)CC[C@H]2[C@@H]3CCC4=CC(=O)C=C[C@]4(C)[C@H]3[C@@H](O)C[C@@]21C | -15.7 |
| Nc1ncnc2c1ncn2[C@@H]1O[C@H](CO)[C@@H](O)[C@@H]1O | -9.2 |
| CCOc1ccc2ccccc2c1C(=O)N[C@@H]1C(=O)N2[C@@H]1SC(C)(C)[C@@H]2C(=O)O | -3.4 |
| NS(=O)(=O)c1cc2c(cc1Cl)N=CNS2(=O)=O | 2.4 |
| CC[N+](C)(C)c1cccc(O)c1 | -20.1 |
| CCCNC(C)C(=O)Nc1ccccc1C (centres unmarked) | -4.1 |
| CO[C@@]1(NC(=O)Cc2cccs2)C(=O)N2C(C(=O)O)=C(COC(N)=O)CS[C@@H]21 | -15.7 |
| Nc1ccn([C@@H]2CS[C@H](CO)O2)c(=O)n1 | 5.8 |
| CCN1CCCC1CNC(=O)c1cc(S(=O)(=O)CC)c(N)cc1OC (centres unmarked) | 2.9 |
| CC(C)(C)NC(=O)[C@@H]1CN(Cc2cccnc2)CCN1C[C@@H](O)C[C@@H](Cc1ccccc1)C(=O)N[C@H]1c2ccccc2C[C@H]1O | -17.5 |
| CN(C)CCc1c[nH]c2ccc(Cn3cncn3)cc12 | -6.1 |

Excerpt of the above (block 2):
| target | remaining binding [%] |
| --- | --- |
| BTK (Homo sapiens, UniProt Q06187) | 96 |
| EPHB4 (Homo sapiens, UniProt P54760) | 100 |
| GRK7 (Homo sapiens, UniProt Q8WTQ7) | 85 |
| AXL (Homo sapiens, UniProt P30530) | 100 |
| PAK6 (Homo sapiens, UniProt Q9NQU5) | 100 |
